Experimental data collected from several papers.
Numbered parts are unrelated; each lists some results of a single study. Positions count from the first letter of the parent shown.

Study 1
Target: CCNE2, cyclin fold, Cln2 fusion (human)
Method: yeast growth competition, sequencing
Medium: yeast
Setting: weak parent motif
Baseline: not given
Reading: higher = stronger binding
Starting sequence: RB1 docking peptide (human); PKPLKKLRFDIEG; partner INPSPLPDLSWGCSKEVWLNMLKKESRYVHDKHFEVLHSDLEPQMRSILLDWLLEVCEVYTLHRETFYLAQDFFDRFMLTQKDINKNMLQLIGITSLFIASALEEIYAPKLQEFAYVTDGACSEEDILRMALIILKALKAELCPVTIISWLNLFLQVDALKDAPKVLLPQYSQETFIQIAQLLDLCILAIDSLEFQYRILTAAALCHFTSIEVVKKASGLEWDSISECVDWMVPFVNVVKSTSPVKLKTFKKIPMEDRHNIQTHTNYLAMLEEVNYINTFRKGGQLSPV
| Variant | normalised enrichment score |
| --- | --- |
| PKPLKKLRFDIEC [G13C] | 0.899 |
| PKPLKKLRFDREG [I11R] | -0.211 |
| PKPLKKWRFDIEG [L7W] | 1.05 |
| PKPLVKLRFDIEG [K5V] | 0.0655 |
| PKPLKTLRFDIEG [K6T] | 0.457 |
| PKPLKKLRFKIEG [D10K] | 1.08 |
| PKPLAKARFDIEG [K5A L7A] | -0.0295 |
| PKPIKKLRFDIEG [L4I] | 0.456 |

Study 2
Target: RNA binding protein fox-1 homolog 2, RRM domain, GST-SBP tag (RBFOX2, Homo sapiens, UniProt O43251-10, residues 100-194)
Method: RNA Bind-n-Seq
Form: RNA
Medium: in vitro
Tested at: 365 nM
Setting: natural RNA segment, single round, ends assumed
Baseline: no-protein control
Reading: higher = stronger binding
Constant ends, left off below: GGGAGUUCUACAGUCCGACGAUC … UGGAAUUCUCGGGUGCCAA
Construct (chain): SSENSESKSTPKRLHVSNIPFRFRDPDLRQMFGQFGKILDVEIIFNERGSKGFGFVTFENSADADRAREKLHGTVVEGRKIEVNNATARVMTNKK
| Strand | RBNS enrichment (R) |
| --- | --- |
| GUCCAAGUGUGCUCUCCUUUCAUACAGUUUCCAUGGUGUGAGUGCUUUACUGAAGAUCUGUUUCUUUUGUACUCUGACUACACAUGACCCAAUUAUAUUCUAAUGUGAAA | 0.342 |
| CAUGCUUCUUAGCGCUGACUUCCAGGAGCAAGAGUGAAGAGGCAGCACGUAGAACUCCCUGCAUAAGCCAAGCCACCAGGCUCCUAUGCCUCUCUUAGUCUUCCCCCUAG | 0.394 |
| UGAUAAUGUGAUUGAACACUUUAGUAAUGCAAAAUAACUCAUUUCCAACUACUGCUGCAGCAUUUUGGUAAAAACCUGUAGCGAUUCGUUACACUGGGGUGAGAAGAGAU | 0.694 |
| GCCUGGGUCUGUCUGAGGAAGGAGGGGGUCCCGCCUUCCACCUCAACACAUCCCUUCAGUGACUCAGAGUCUCAGAAGGAAACCCUGACUCCUGGGGCCAUUUCCUAAUG | 0.212 |
| GUCUUUCGCAUCAUAUUCGUUAGCAUUUAUUUGGUGGCAGAAUGUUUGCCUAGGUACAGAAUUAAUAGCCCUUAGCAACGACUGCUGCUGGUGUGUAUUUUUGUAAAUGU | 1.43 |
| GGCAGCCUCUUCAACCAUUAUUGGUCUAACCUGGCUUGUCAGGAAACCAAGCCCACCCUUCCACAUUGGGCCUGGCUGCUCUAUUCUGUACCAAGUACUGGAGAAAAAGC | 0.331 |
| UUGUUUUUAGCCAUGUAACUACAAACAGAUAUUCUCUUGAUGUCUUAGUAAAUUUGCAUUUGAUAUAUCAUUGAUGAGAUUUUGUUGUUAUGUAAUAUUCUUUGGCUACG | 0.359 |
| UUUUUUUUUUUUUUUUAAACUAGGAGAACCAAAUCUGGAAGCCAAAAUGUAGGCUUAGUUUGUGUGUUGUCUCUUGAGUUUGUCGCUCAUGUGUGCAACAGGGUAUGGAC | 0.695 |
| CUACCUGCCCCAACUCUCAAAGACCUUGAUCCCUUCUUUUCCUUCCAUCCCACCUUUUCCUUCCACUGCCCAAUCACAGCCUCUAGCCUUUAUUUGACCAGUUAAAAUGG | 0.757 |

Study 3
Target: RING finger protein unkempt homolog, zinc fingers 1-6, GST-SBP tag (UNK, Homo sapiens, UniProt Q9C0B0, residues 30-357)
Method: RNA Bind-n-Seq
Form: RNA
Medium: in vitro
Tested at: not given
Setting: RNA with constant flanks, human and mouse sites, ends assumed
Baseline: input RNA pool
Reading: higher = stronger binding
Constant ends, left off below: GGGAGUUCUACAGUCCGACGAUC … CAACAGAGGAUUGAGCAUCA
Construct (chain): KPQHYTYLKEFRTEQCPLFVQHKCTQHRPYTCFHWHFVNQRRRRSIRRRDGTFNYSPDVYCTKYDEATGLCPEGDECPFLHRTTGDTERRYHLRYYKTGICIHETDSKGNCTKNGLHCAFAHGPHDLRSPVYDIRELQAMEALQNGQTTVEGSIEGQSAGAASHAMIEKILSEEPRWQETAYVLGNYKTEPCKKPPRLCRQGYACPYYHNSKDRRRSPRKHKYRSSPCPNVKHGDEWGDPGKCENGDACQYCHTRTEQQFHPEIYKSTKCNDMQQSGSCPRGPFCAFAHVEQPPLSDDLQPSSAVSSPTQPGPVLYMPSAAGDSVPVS
| Strand | bound/input enrichment [ratio] |
| --- | --- |
| CAAAUUUUUCACUCAAAGGAGAGUAUAGUUGCAACCACUAAAUCCAAAAAGGACACGUUUGUUUUAGAAAGCGUUGAUUCUGCUGAUGAACAAUUUCAAAAUACUAAUGCUGAGACUCUC | 0.421 |
| GUGACAGACUCCAGCCGCUACUUUGUGAUCAGGAUCCAGGAUGGAACCGGGCGCAGCGCGUUUAUUGGCAUCGGCUUCACGGAUCGGGGAGAUGCCUUCGACUUUAAUGUUUCCCUGCAA | 0.203 |
| CACAUAAUAACAUUCUUAAAUGAAAUCACUUCAAUAUGUUUCUCUGAAGUCUUUCUCUCUGUUUACCAGAGUUUAUCUAAGAACUUAUAUGACUUAAACAAUACAGUGUGUUACACUUUA | 0.45 |
| UGUAAAUUAUGUAAUGCAAAAUUUUUUUAAUCUUCGCCUUAAUACUUUUUUAUUUUGUUUUAUUUUGAAUGAUGAGCCUUCGUGCCCCCCCUUCCCCCUUUUUUGUCCCCCAACUUGAGA | 6.98 |
| AGGGAGCUUCCAGGAAGACUUGCCUCAAACAACUGAGCCAAAGACAGACUGGUUAGAACGUAGUCAUAUGCUUUUGUGUGCAAAUAAUAUUUUCAAAGAACUAAUAAUAAUUUGAUUGAG | 2.15 |
| GAGGCCCUAGCCAGUCCACAGAUUGUAGCGGCAUUCACCUCUCAGGCUGUAGAUCAGUCCAAAGUGUUUGUGAAGGUGUUUACUGAAAUUGACCGGAUGCCCCAGCUCCUGGCCUACUAC | 0.0662 |
| AGAAGACCUCAUGAGAGAGGUAAACACCUUUGUAAAGAAUCUGUAACCAAUACCAUGAAGUUCAGGCUGUGAUCUGGGCUCCCUGACUUUCUGAAGCUAGAAAAAUGUUGUGUCUCCCAA | 0.451 |

Mixed results
| Substance | target | assay | system | setting | how to read | quantity | value |
| --- | --- | --- | --- | --- | --- | --- | --- |
| PhoQ, residues 284 288 289 292 302 303 NLMGRA | PhoP, residues 12 14 15 18 19 HEGLL (Escherichia coli, UniProt P23836) | Sort-seq, measured: YFP reporter | E. coli | PhoQ-PhoP variant library, added: 10 µM Mg2+ | baseline: high Mg2+ state, higher = stronger signaling | fold induction | 18.9 |

A few entries again (study 3):
| Strand | bound/input enrichment [ratio] |
| --- | --- |
| GAGGCCCUAGCCAGUCCACAGAUUGUAGCGGCAUUCACCUCUCAGGCUGUAGAUCAGUCCAAAGUGUUUGUGAAGGUGUUUACUGAAAUUGACCGGAUGCCCCAGCUCCUGGCCUACUAC | 0.0662 |
| AGGGAGCUUCCAGGAAGACUUGCCUCAAACAACUGAGCCAAAGACAGACUGGUUAGAACGUAGUCAUAUGCUUUUGUGUGCAAAUAAUAUUUUCAAAGAACUAAUAAUAAUUUGAUUGAG | 2.15 |
| UGUAAAUUAUGUAAUGCAAAAUUUUUUUAAUCUUCGCCUUAAUACUUUUUUAUUUUGUUUUAUUUUGAAUGAUGAGCCUUCGUGCCCCCCCUUCCCCCUUUUUUGUCCCCCAACUUGAGA | 6.98 |
